Measured values gathered from unrelated publications.
A part holds a random share of what one study measured. Substitutions count along the parent as printed.

Block 1 — technique: RNA Bind-n-Seq; molecule type: RNA; matrix: in vitro; concentration: 365 nM; baseline: no-protein control; reading: higher = stronger binding
Target: RNA binding protein fox-1 homolog 2, RRM domain, GST-SBP tag (RBFOX2, Homo sapiens, UniProt O43251-10, residues 100-194)
Setting: natural RNA segment, single round, ends assumed
Constant ends, left off below: GGGAGUUCUACAGUCCGACGAUC … UGGAAUUCUCGGGUGCCAA
Construct (chain): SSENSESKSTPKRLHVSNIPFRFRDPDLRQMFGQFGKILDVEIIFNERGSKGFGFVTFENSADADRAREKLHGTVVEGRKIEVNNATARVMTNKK
Oligonucleotide | RBNS enrichment (R)
CGGGAGCUAGAGACCAGGAGAUAUGAGGCCAGUGUGAGCUGUGUCACAAGUUCCAGGUCAGCCUGUGCUGUGUAGCACAGUCCAGCUCCCUACACCUCCUCACACACACA | 0.204
AGCCAGGCAGUCUAUCUAUUUACAUGGCAGUAUACUAGAGAAACUCAGGAAGCAAGAGUGUUCAUCACUGUUGUAAUUUCAAAUGCUCCUUGUGAUUUCUGGCAUCUCUG | 0.365
AACCGUAUAUUAAUCGCCAGUGUUUAAAACUGGUUUAUCAGAAUUUAUAUUUUUGUCUCUCCUGCCUUUUGAAUUUUACUUAUGACAGAGAAAGUAUUGAGCCAUGACUU | 0.512
GGUGGAAGGGGGUGCAUGUAUGUGUUAGUGUUUGUGUGUGUGUGUGUGUCUGUCUGUUCGUCUGUCCACCUAUCUUUGUGGAAGUCACUGUGAUGGUAGUGACUUUAUGA | 23.2
AUGCUUAAAUCCAAGUUGUUUCUCCAGCUGUCACCUCCCCCAGGAGAUCAGGAUUCCACUGACGUCCUGGGCAGCCAGUGAAUUUAAUUUUCCAUGAGAAACAACAGAGU | 0.525
GCAUGCCACAAGUUAAAGGUCACCUUCCUGAAAGAUGAAUGAGAAAGCUGCCCAUUCUCAAGACUCAUCUGCCUAGGGAGGGUCACAGAGGCAGGAUGUAAGACACACUG | 1
UGCUAGCUACCAUCUAAACUGUCCCAUUUUGACCCCUUUCUCCCCAUUAAGCCCUCUACGCUUGGCCCAUUACUCCCACCAUUUAUCCUCUUUUCCGUCUCAAAGGAAGC | 2.67
UAUUGAGCCAGGCAGUGGUGACACGCACACCUUUAAUCCUGGCAUUUGGGAGGUAGAGGCAGUCAGAUCUCUGUGAGUUCAAGGCCAGCCUGGUCUACAGAGUAAGUUCU | 0.26
UUUUCUCCCACCUCAUCCUUCUUCAGCCCCACCCAGCCCCCACUCCCUAGGCUCAGGUAGCUUGUUCCUUGGGGUGGGAAGGGAGCUAGGGAAGGGUCAAAGUGUGGACA | 0.299
AGUAUUUGUGAAAUCAGAGCUGACAUGUAAGCUAUUCUUGUAAUAUCUCAUUAUUUUGAAAGAUUUAUAUAAUGAACUCUGGCUAUCUGACAAUAAAAUGGAUGAAAAAG | 0.36
CAAGGUGUCUCCUCUCAGUGCAGGGACAUGCCUGCUCUGUGGGGCAGGCGAGGACCCUGAAUCAUUUGGAGCCCAGAAGGAGGCAGACUGGCCAGGUCUCACCACCUCAG | 0.19
CAAAAACCAAACAAACUGGCAGACAGGCCAGGGAUGUAUGUUGCUUGCUUGAGAGGGUUUCUUUUACUUCAAAAUCUUUCUUCAGGGAGCAAGACAUGAACUGACUAAUU | 0.642

Block 2 — technique: RNA Bind-n-Seq; molecule type: RNA; matrix: in vitro; concentration: 200 nM; setting: whole 134-nt RNA, ends assumed; together with: 150 mM KCl; baseline: input library; reading: higher = stronger binding
Target: Fragile X messenger ribonucleoprotein 1, C-terminal low-complexity region (Fmr1, Mus musculus, UniProt P35922)
Constant ends, left off below: GGGAGUUCUACAGUCCGACGAUC … UGGAAUUCUCGGGUGUCAAGG
Oligonucleotide | log2 enrichment
CCUGUGCUACACAUCGUAUGUACCGAAUCGGAAAAAAAGGGAAAAAAAGGAAAAAAAGGGAAAGUAUUAUGUUACGCCGUUCGGAUCUGC | -0.769
UCCUGUGCUACACAUCGUAUGUACCGAAUCGGGGUUUUUGGGGUUUUUGGUUUUUGGGGAAAGUAUUAUGUUACGCCGUUCGGAUCUGCA | 0.199
UGGGAGGUGGAUUUUGUUUAUUUUUUUAGCUCAUUUCCAGAGGUGGGAAUUUUUUUUUAAUAUGUGUCAUGAAUAAAGUUGUUUUUGAAA | -0.0467
UAACUUUAGAGGAGGAUCUGAUGGAUAUGGCAGUGGACGUGGAUUUGGGGAUGGCUAUAAUGGGUAUGGCGGAGGACCUGGAGGUGGCAA | 0.263
UAACUUUAGAGGAGGAUCUGAUGGAUAUGGCAGUGGACGUGGAUUUGGGGAUGGCUAUAAUGGGUAUGGAGGAGGACCUGGAGUUGGCAA | 0.16
UCCUGUGCUACACAUCGUAUGUACCGAAUCAAACCCCCAAACCCCCAAAUUUUUUUAAAAAAGUAUUAUGUUACGCCGUUCGGAUCUGCA | -0.117
UCCUGUGCUACACAUCGUAUGUACCGAAUCGGGGUGGGGAAAAAGGGGUUUUUUUGGGGAAAGUAUUAUGUUACGCCGUUCGGAUCUGCA | 0.843
CAAGUCCUGUGCUACACAUCGUAUGUACCGAAUCGGGGUUGGGUUGGGGUUGGGGAAAGUAUUAUGUUACGCCGUUCGGAUCUGCACUUC | 1.2
AAGUCCUGUGCUACACAUCGUAUGUACCGAAUCGGGUGGGAAAAAAAGGGUUUGGGAAAGUAUUAUGUUACGCCGUUCGGAUCUGCACUU | 0.772
UGUCAGUAUCAUACAUAACAGAGGAAUGCCUGAAGAAGCUGGACACAAAGCAGCAGACCAACACCCUGCUCAACCUGGUGUGGAGGGACU | -0.411
CAAGUCCUGUGCUACACAUCGUAUGUACCGAAUCGGGUUUGGGAAAGGGUUUGGGAAAGUAUUAUGUUACGCCGUUCGGAUCUGCACUUC | 0.885
CUCAAGUCCUGUGCUACACAUCGUAUGUACCGAAUCGGGUUGGGUUGGUUGGGGAAAGUAUUAUGUUACGCCGUUCGGAUCUGCACUUCC | 1.16
UCAAGUCCUGUGCUACACAUCGUAUGUACCGAAUCGGGUUUUUGGGUGGGAGGGAAAGUAUUAUGUUACGCCGUUCGGAUCUGCACUUCC | 1.14
AGUCCUGUGCUACACAUCGUAUGUACCGAAUCGGGGCCCCCGGGCCCCCGGCCCCCGGAAAGUAUUAUGUUACGCCGUUCGGAUCUGCAC | -0.757

Block 3 — technique: DHFR PCA, deep sequencing; matrix: yeast; together with: (+)-ABA 2500 µM; baseline: wild-type fitted maximum; reading: higher = stronger binding
Target: ABI1, truncated, D143A, DHFR fusion (Arabidopsis thaliana)
Setting: methotrexate growth selection, single substitutions
Parent: PYL1, truncated, DHFR fusion (Arabidopsis thaliana); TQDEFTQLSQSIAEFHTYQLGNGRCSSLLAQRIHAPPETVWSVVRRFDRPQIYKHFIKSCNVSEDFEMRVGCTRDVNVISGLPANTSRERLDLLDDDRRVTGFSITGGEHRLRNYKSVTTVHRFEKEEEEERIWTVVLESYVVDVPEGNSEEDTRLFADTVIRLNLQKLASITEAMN; partner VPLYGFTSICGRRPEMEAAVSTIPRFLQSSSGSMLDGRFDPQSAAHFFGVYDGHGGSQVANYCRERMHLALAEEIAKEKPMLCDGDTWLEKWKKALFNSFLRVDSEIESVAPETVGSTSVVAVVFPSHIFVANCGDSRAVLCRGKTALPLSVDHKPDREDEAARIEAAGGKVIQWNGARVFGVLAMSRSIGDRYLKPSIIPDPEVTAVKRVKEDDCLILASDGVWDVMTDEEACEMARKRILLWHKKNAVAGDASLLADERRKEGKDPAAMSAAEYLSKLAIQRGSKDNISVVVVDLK
Variant | relative binding score
V136H | 81.1%
D153Q | 87.3%
T86Y | 91%
N85H | 98.7%
A30H | 99.8%
V137E | -18.7%
V136M | 91.2%
F47T | -5.17%
H16G | 45.3%
V62P | 85.5%
L8R | 86%
R99E | 91.5%
R49Q | 97.2%
I52A | 97.8%
E64A | 94.4%
G107A | 98.2%
V78D | 0.269%
R32S | 93.4%
N61T | 99.3%

Block 4 — technique: protein-binding microarray; molecule type: double-stranded DNA, one strand shown; matrix: in vitro; concentration: 250 nM; setting: 60-bp whole probe; together with: salmon DNA 0.4 mg/ml; baseline: random background probes; reading: higher = stronger binding; constant ends, left off below: GCCTAGCAC … GTCTTGATTCGCTTGACGCTGCTG
Target: Interferon regulatory factor 5, full length, phosphomimetic (IRF5, Homo sapiens, UniProt Q13568-2, residues 1-514, K96S/S451D/S453D/S456D/S462D)
Oligonucleotide | log fluorescence
GACGGACTGGACACTGGGGACGTGCTA | -0.579 z-score
TTAGATATTGGGTTTCGATTAGTGCTA | 6.99 z-score
GACGGTCTCGGACCGGGGACGTGCTAG | -0.486 z-score
TTACATTTTAATTTTATTTGGTGCTAG | 1.46 z-score
GACGGTCTCCTGCTCCTGACGTGCTAG | -0.297 z-score
GCCGATCTCAGTTTCGAGACGTGCTAG | 5.01 z-score
TCATTTCTCCTTTCGGAACTGTGCTAG | 5.11 z-score
GACGATATCAGTTTGGAGACGTGCTAG | 1.22 z-score
TCACATGTTTTTTTCTAACTGTGCTAG | 1.06 z-score
ATTTACATGCATATAGTATAGTGCTAG | 0.652 z-score
GACGGACTGCTTAGCCTGACGTGCTAG | -0.815 z-score
TTAGGACTGGGGACTGGGTAAGTGCTA | -0.605 z-score
TTAGGTTTCGGGTTTCGGGTAGTGCTA | 9.36 z-score
GACGATTTCGGGTATTGAGACGTGCTA | 3.99 z-score
GACGGACTGCTTCTCTTGACGTGCTAG | -0.353 z-score
TTAGAACTGGGTACTGGATTAGTGCTA | -0.0436 z-score
TCACCTTTTGCTTTACTACTGTGCTAG | 1.28 z-score
TTAGGTCTCCGTCTCCTTTAGTGCTAG | -0.308 z-score
TCAATTTTCATTATTGCACTGTGCTAG | 2.59 z-score
TGAGGTATCGACTATCGGTTAGTGCTA | 7.72 z-score
AATGATTACATATATGTTGGTGTGCTA | 0.403 z-score
TTAGGACTGGACTTTTGGTTAGTGCTA | 1.06 z-score
GACGGTATCGGTCTCGGGACGTGCTAG | 4.74 z-score
TCATTTCTAAATTCCCTACTGTGCTAG | 1.19 z-score

Mixed results — organism: Saccharomyces cerevisiae; effect on: binding; technique: competitive growth deep sequencing; molecule type: peptide; concentration: concentration not given; reading: direction not given
Sequence | strain | setting | growth enrichment score
SNARRSLNFGGST | cyclin D3-Cln2 fusion strain | RxL motif peptides | 0.279
KGVKRKLFAEDSS | cyclin D3-Cln2 fusion strain | RxL motif peptides | -0.035
REPARRLFLFGEE | cyclin E1-Cln2 fusion strain | Cln2 score subtracted | 0.324

Repeated from above (block 3):
Variant | relative binding score
F47T | -5.17%
H16G | 45.3%
V62P | 85.5%
L8R | 86%
R99E | 91.5%
R49Q | 97.2%
